Experimental data pooled from the literature.
Compare with care: the assays were run in different laboratories.
Organism: Escherichia coli

colistin
MIC (broth microdilution; clinical isolate RKI-No_582/16): ≤ 0.5 µg/mL

polymyxin B
MIC (broth microdilution; ATCC 19606; various colistin salts): 0.06 µg/mL

gentamicin sulfate
MIC (ATCC 25922; 18 h, 37 °C, added: LED light 1.57 mW, 10 min): 0.125 µM

benzalkonium chloride
MIC (two-fold serial dilution; ATCC 8739; dark or light not distinguished): > 640 µM

colistin
MIC (ATCC 25922): 0.25 µg/mL

polymyxin B sulfate
MIC (broth microdilution; ATCC 25922; various colistin salts): 0.06 µg/mL

colistin
MIC (broth microdilution; ATCC 25922; 18 h): 2 µM

colistin sulfate
MIC (DSM 30083): 0.125 µM

polymyxin B acetate
MIC (broth microdilution; ATCC 19606; various colistin salts): 0.06 µg/mL

Some of these lines once more:
colistin sulfate
MIC (DSM 30083): 0.125 µM
